Measurements gathered from unrelated publications.
EGFR: Epidermal growth factor receptor (EGFR, Homo sapiens, UniProt P00533)
EGFR A750P/del747-749: Epidermal growth factor receptor (EGFR, Homo sapiens, UniProt P00533, A750P/del747-749)
Nuclear receptor subfamily 2 group C member 2 ligand-binding domain: Nuclear receptor subfamily 2 group C member 2, ligand-binding domain (Homo sapiens, UniProt P49116)
Sequence of UniProt P49116 (whole entry, looked up): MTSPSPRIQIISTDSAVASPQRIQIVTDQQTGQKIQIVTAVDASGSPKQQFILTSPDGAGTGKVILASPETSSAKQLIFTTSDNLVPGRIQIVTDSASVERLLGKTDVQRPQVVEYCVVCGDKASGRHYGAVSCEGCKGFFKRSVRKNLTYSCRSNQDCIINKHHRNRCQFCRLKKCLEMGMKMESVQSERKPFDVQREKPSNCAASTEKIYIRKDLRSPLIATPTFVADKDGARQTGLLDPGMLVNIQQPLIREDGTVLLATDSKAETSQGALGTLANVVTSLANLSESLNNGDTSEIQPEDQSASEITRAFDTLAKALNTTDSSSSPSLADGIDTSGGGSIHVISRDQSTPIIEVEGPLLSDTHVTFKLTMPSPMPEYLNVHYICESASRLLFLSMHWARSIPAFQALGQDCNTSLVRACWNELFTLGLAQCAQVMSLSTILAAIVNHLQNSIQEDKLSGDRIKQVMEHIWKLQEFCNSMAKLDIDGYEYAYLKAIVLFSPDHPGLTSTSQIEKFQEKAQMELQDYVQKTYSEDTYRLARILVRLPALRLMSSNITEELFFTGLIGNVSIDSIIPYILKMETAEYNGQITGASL

C=CC(=O)N1CCC(C(=O)NCC(=O)N2CCN(c3nc(-c4cnc(N)nc4C(F)F)nc(N4CCOCC4)n3)CC2)CC1  remaining binding (EGFR; KINOMEscan; 1 µM): 100%
C=CC(=O)N1CCC(COCC(=O)N2CCN(c3nc(-c4cnc(N)nc4C(F)F)nc(N4CCOC[C@@H]4C)n3)CC2)CC1  remaining binding (EGFR A750P/del747-749; KINOMEscan; 1 µM; baseline: DMSO control): 93%
C[C@]12CC[C@@H]3c4ccc(O)cc4CC[C@H]3[C@@H]1C[C@@H](O)[C@@H]2O  Kd (Nuclear receptor subfamily 2 group C member 2 ligand-binding domain; SPR imaging): 0.166 nM
CC(=O)Nc1ccc(C(=O)Nc2ccccc2N)cc1  viability (OCI-Ly1; 0.5 µM, 120 h): 33.1%
COc1ccc(-c2nn(-c3ccc(S(C)(=O)=O)cc3)cc2/C=N/N=c2\[nH]c(-c3ccc(Br)cc3)cs2)cc1  inhibition (EGFR (Homo sapiens, UniProt P00533, L858R); kinase activity, inhibitor; 0.1 µM): 55%
COc1cc(N2CCN(C)CC2)ccc1Nc1nc(N)n(C(=O)NCc2ccccc2S(=O)(=O)C(C)C)n1  remaining activity (EGFR A750P/del747-749; enzyme activity; 10 µM; baseline: control): 6%
COc1ccc(-c2nn(-c3ccc(S(C)(=O)=O)cc3)cc2C=N/N=c2\[nH]c(-c3ccc([N+](=O)[O-])cc3)cs2)cc1  inhibition (EGFR; kinase activity, inhibitor; 100 µM): 93.1%
CC1=CC(=O)CC(C)(C)[C@@]1(O)/C=C/C(C)=C\C(=O)O  viability (OCI-Ly1; 1 µM, 120 h): 3.73%
C[C@@H](c1ccc(-n2cnc3c(N)ncnc32)cc1)N1CCc2nn(C)c(Cc3ccccc3)c2C1=O  remaining binding (EGFR A750P/del747-749; KINOMEscan; 0.1 µM; baseline: DMSO control): 99%
CC(C)Oc1cc(N2CCN(C)CC2)ccc1Nc1nc(N)n(C(=O)NCc2ccccc2S(=O)(=O)C(C)C)n1  remaining activity (EGFR (Homo sapiens, UniProt P00533, del752-759); enzyme activity; 10 µM; baseline: control): 27%
CC(C)Cc1ccc(-c2nn(-c3ccc(S(C)(=O)=O)cc3)cc2/C=N/N=c2\[nH]c(-c3ccc([N+](=O)[O-])cc3)cs2)cc1  inhibition (EGFR; kinase activity, inhibitor; 0.1 µM): 32%
CCOc1cc(N2CCN(C)CC2)ccc1Nc1nc(N)n(C(=O)NCc2ccccc2S(=O)(=O)C(C)C)n1  remaining activity (EGFR; enzyme activity; 10 µM; baseline: control): 12%
COCCCOc1cc(C[C@@H](C[C@H](N)[C@@H](O)C[C@H](C(=O)NCC(C)(C)C(N)=O)C(C)C)C(C)C)ccc1OC  Kd (Nuclear receptor subfamily 2 group C member 2 ligand-binding domain; SPR imaging): 5.64 nM

A few entries again:
CC(C)Oc1cc(N2CCN(C)CC2)ccc1Nc1nc(N)n(C(=O)NCc2ccccc2S(=O)(=O)C(C)C)n1  remaining activity (EGFR (Homo sapiens, UniProt P00533, del752-759); enzyme activity; 10 µM; baseline: control): 27%
CC1=CC(=O)CC(C)(C)[C@@]1(O)/C=C/C(C)=C\C(=O)O  viability (OCI-Ly1; 1 µM, 120 h): 3.73%
